Results from different studies.
A part holds a random share of what one study measured. Changes are numbered by the printed parent chain.

Study 1
Target: PABPC1L2, full length, GST fusion (mouse, UniProt A0ABA7IW68)
Technique: RNAcompete
Form: RNA
Matrix: in vitro
Concentration: 20 nM
Setting: 7-mer, probes averaged, single round
Relative to: mean of 7-mers
Reading: higher = stronger binding
Residues (chain): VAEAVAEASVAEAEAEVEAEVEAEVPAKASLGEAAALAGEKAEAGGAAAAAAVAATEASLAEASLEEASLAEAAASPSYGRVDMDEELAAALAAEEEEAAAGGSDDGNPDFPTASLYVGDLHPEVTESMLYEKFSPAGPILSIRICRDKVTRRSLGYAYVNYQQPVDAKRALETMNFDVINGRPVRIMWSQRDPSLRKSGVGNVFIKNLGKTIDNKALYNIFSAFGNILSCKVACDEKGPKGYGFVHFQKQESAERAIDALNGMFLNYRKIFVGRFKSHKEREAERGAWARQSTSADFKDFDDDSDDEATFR
For `AUAGGCC`, the 7-mer Z-score was -0.113.
`GAAUCUU` gave a 7-mer Z-score of -0.298.
`AUCAGAG` has a 7-mer Z-score of -0.00833.
For `GUAAGUG`, the 7-mer Z-score was -0.11.
For `CAUCCCG`, the 7-mer Z-score was -0.224.
`AGCUAGC` has a 7-mer Z-score of -0.117.
With `CACGAGU` the 7-mer Z-score was -0.211.
The 7-mer Z-score of `UUCCCGC` is reported as -0.4.
With `UGGCUAC` the 7-mer Z-score was -0.132.
`UACACCG` has a 7-mer Z-score of -0.13.
For `ACCCACG`, the 7-mer Z-score was -0.264.
The 7-mer Z-score of `UGUCAUG` is reported as -0.26.
For `GAUAUUA`, the 7-mer Z-score was -0.171.
`AUCUGAC` has a 7-mer Z-score of -0.182.
For `CCCAGGA`, the 7-mer Z-score was -0.153.
With `AGGCGAU` the 7-mer Z-score was 0.218.
With `GGUCAGC` the 7-mer Z-score was -0.117.
`ACACGCC` gave a 7-mer Z-score of -0.226.
The 7-mer Z-score of `AGUUCGG` is reported as -0.213.
`UAAAUGC` gave a 7-mer Z-score of 0.302.
With `CACCCAG` the 7-mer Z-score was -0.179.
`ACUCAUU` has a 7-mer Z-score of -0.141.
`CGGGGCA` gave a 7-mer Z-score of 0.43.
The 7-mer Z-score of `AACUUCG` is reported as 0.0515.
`CUUACGG` has a 7-mer Z-score of -0.155.

Study 2
Target: BIRC6 UBC core domain (UniProt Q9NR09)
Technique: yeast two-hybrid
Matrix: yeast
Setting: mostly zero background
Relative to: not given
Reading: higher = stronger interaction
B1: MSL2 RING domain (UniProt Q9HCI7); chain LLPYFRQSLSCCVCGHLLQDPIAPTNSTCQHYVCKTCKGKKMMMKPSCSWCKDYEQFEENKQ
B2: RNF175 RING domain (UniProt Q8N4F7); chain LPTRSLSDNICAVCGQKIIVELDEEGLIENTYQLSCNHVFHEFCIRGWCIVGKKQTCPYCKEKVDLKRMIS
B3: RNF150 RING domain (UniProt Q9ULK6); chain DKETESDFDNCAVCIEGYKPNDVVRILPCRHLFHKSCVDPWLLDHRTCPMCKMNILKALGIP
B4: PHF7 RING domain (UniProt Q9BWX1); chain IQHGHVGEESCILCCEDLSQQSVENIQSPCCSQAIYHRKCIQKYAHTSAKHFFKCPQCNNRKEFPQEML
B5: TRIM10 RING domain (UniProt Q9UDY6); chain SVTSLADEVNCPICQGTLREPVTIDCGHNFCRACLTRYCEIPGPDLEESPTCPLCKEPFRPGSFRP
B6: TRIM52 RING domain (UniProt Q96A61); chain PMQTLQEEAVCAICLDYFKDPVSISCGHNFCRGCVTQLWSKEDEEDQNEEEDEWEEEEDEEAV
B7: PEX2 RING domain (UniProt P28328); chain DNTLATSGKECALCGEWPTMPHTIGCEHIFCYFCAKSSFLFDVYFTCPKCGTEVHSLQPLK
B8: TRIM3 RING domain (UniProt O75382); chain VQPMDKQFLVCSICLDRYQCPKVLPCLHTFCERCLQNYIPAQSLTLSCPVCRQTSILPEQGV
Construct (chain): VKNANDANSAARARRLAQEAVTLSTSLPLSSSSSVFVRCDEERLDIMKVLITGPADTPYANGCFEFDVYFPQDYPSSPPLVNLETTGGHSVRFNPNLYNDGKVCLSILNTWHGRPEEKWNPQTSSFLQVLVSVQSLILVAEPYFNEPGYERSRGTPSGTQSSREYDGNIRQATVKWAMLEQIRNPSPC
For `B1 (MSL2 RING domain)`, “lacZ reporter activity” read 0.
For `B2 (RNF175 RING domain)`, “lacZ reporter activity” read 0.
`B3 (RNF150 RING domain)`: “lacZ reporter activity” 0.
Under “lacZ reporter activity”, `MANWVFCNRCFQPPHRTSCFSLTNCGHVYCDACLGKGKKNECLICKAPCRTVLLSK (RNF212 RING domain (UniProt Q495C1))` is recorded as 0.
Under “lacZ reporter activity”, `B4 (PHF7 RING domain)` is recorded as 0.
For `KRQCSDVDDICSICQAEFQKPILLICQHIFCEECMTLWFNREKTCPLCRTVISDHINKW (RNFT1 RING domain (UniProt Q5M7Z0))`, “lacZ reporter activity” read 0.
`B5 (TRIM10 RING domain)` — result for “lacZ reporter activity”: 0.
`B6 (TRIM52 RING domain)`: “lacZ reporter activity” 0.
`SYEDKSNDFVCPICFDMIEEAYMTKCGHSFCYKCIHQSLEDNNRCPKCNYVVDNIDHLY (COP1 RING domain (UniProt Q8NHY2))` — result for “lacZ reporter activity”: 0.
For `B7 (PEX2 RING domain)`, “lacZ reporter activity” read 0.
Under “lacZ reporter activity”, `KIKDLNEHIVCCLCAGYFVDATTITECLHTFCKSCIVKYLQTSKYCPMCNIKIHETQPLL (PCGF1 RING domain (UniProt Q9BSM1))` is recorded as 0.
Under “lacZ reporter activity”, `B8 (TRIM3 RING domain)` is recorded as 0.
`ISNDSETLEECMVCSDMKRDTLFGPCGHIATCSLCSPRVKKCLICKEQVQSRTKIE (MIB1 RING domain (UniProt Q86YT6))`: “lacZ reporter activity” 0.

Study 3
Target: CCND2, cyclin fold, Cln2 fusion (human)
Technique: yeast growth competition, sequencing
Matrix: yeast
Setting: weak parent motif
Relative to: not given
Reading: higher = stronger binding
Starting sequence: CDC6 docking peptide (human); TLKGRRLVFDNQL
For `TLKGERLVFDNQL [R5E]`, “normalised enrichment score” read 0.205.
`TLKPRRLVFDNQL [G4P]`: “normalised enrichment score” 0.37.
For `TTKGRRLVFDNQL [L2T]`, “normalised enrichment score” read 0.0284.
For `TLKGRWLVFDNQL [R6W]`, “normalised enrichment score” read -0.468.
`TLKGRRLVFDEQL [N11E]` — result for “normalised enrichment score”: 0.18.
`TLKGRRLVFDNLL [Q12L]`: “normalised enrichment score” 0.6.
`TCKGRRLVFDNQL [L2C]` — result for “normalised enrichment score”: 0.367.
Under “normalised enrichment score”, `TLKGGRLVFDNQL [R5G]` is recorded as 0.278.
For `TLKGRRLVFDNCL [Q12C]`, “normalised enrichment score” read 0.0919.
For `TLKGRRLVFDNQK [L13K]`, “normalised enrichment score” read 0.0447.
`TLKGRRKVFDNQL [L7K]`: “normalised enrichment score” 0.289.
For `TLKGRRLVFDNWL [Q12W]`, “normalised enrichment score” read 0.526.
`TLKGRRLVFDNQV [L13V]` — result for “normalised enrichment score”: 0.0346.
Under “normalised enrichment score”, `TLKGRRLVIDNQL [F9I]` is recorded as 0.306.
`TLKGRRLVTDNQL [F9T]`: “normalised enrichment score” 0.144.
For `TLKQRRLVFDNQL [G4Q]`, “normalised enrichment score” read 0.114.
`TLKGRRLVFDDQL [N11D]` — result for “normalised enrichment score”: 0.644.
Under “normalised enrichment score”, `TLKGRRLYFDNQL [V8Y]` is recorded as 0.136.
`TLKGRRLVFDNQW [L13W]`: “normalised enrichment score” 0.621.
`TLFGRRLVFDNQL [K3F]`: “normalised enrichment score” -0.124.
Under “normalised enrichment score”, `TLKGRRHVFDNQL [L7H]` is recorded as 0.0233.
`TLKGTRLVFDNQL [R5T]`: “normalised enrichment score” 0.641.

Study 4
Target: Hepatocyte nuclear factor 3-alpha (Foxa1, Mus musculus, UniProt P35582, residues 1-468, full length assumed)
UniProt P35582, sequence (whole entry, looked up): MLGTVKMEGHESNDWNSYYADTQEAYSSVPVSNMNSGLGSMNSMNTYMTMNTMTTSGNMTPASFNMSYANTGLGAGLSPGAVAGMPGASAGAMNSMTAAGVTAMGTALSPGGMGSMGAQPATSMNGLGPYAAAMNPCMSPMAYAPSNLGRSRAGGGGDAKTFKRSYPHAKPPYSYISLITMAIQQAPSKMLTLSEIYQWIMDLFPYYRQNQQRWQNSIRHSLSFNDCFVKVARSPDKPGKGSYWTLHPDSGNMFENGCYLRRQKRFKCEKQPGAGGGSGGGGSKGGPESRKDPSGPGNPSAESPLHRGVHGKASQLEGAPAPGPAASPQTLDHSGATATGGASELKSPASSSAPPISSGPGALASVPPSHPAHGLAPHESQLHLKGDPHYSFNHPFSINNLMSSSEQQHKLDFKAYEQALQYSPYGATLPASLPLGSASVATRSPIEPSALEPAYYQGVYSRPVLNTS
Technique: EMSA with sequencing
Form: double-stranded DNA, one strand shown
Matrix: in vitro
Concentration: 10 and 20 nM
Setting: whole designed probe, mean of two concentrations, ends assumed
Relative to: negative control set to 0
Reading: higher = stronger binding
For `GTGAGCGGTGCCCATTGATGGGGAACAAAAGTCTATTATTATTGAGTCTCACAAATCCTATATCAATGGTTCCCAACTTGCCAGAATAATAAAGTAGTTTATATGACATAAGTATATTTGTTTACATTGTAGCATTAAAGACTATGCTCATACTTAGTGGGGGTCTATCCAAACTTGCTTACTTAGATTAAGAGTGAATAAGCTTTGGTTTTTGGTTTTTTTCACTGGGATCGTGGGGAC`, “normalised bound fraction” read 0.527 ratio.
`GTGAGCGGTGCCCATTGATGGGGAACGGTCAGAGAATGCTAATCAGCCATGAAGTGGGCTTGCCATGACTCTGACACTGTATCTCCTGGTGCACTCTGCGGTAGGTGCATCTTTCCAGAGTAAATACAAAGTGAACTTGACGGGAAAGGAGACCTTAGCAGTCCTACAAAGGCAATTTTGCAAGCTGTCTGGCTGTGGAATTAGTGGAATGTTTTCTCATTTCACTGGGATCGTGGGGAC` — result for “normalised bound fraction”: 0.184 ratio.
`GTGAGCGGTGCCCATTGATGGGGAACGTCCAGAAACCTGTCACACTACTAATTTCAACCCCTTGGCCAGAGCTCAGGCACATGGCTGCACCTAGCTGCAAGGGAAGCTAGGAAGGTCTGTGTTTATTCTGCACAGCCATGAACTCAGCTAAAAGCCAATCAAATATTTGTAAATAAACAAAACAATTTTAGATAGTGATGTATCCTGGGAAAGAACAAATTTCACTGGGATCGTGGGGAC`: “normalised bound fraction” 0.45 ratio.
`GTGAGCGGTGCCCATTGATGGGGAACATCTTCCCCCTCTTCCTTGCCCCACCAGCTCACCTACGGGGGTTATTTGCACAAAGGAAAATAAATAAAGCCGGCATTCGTTAACGCAGTTCACGCGCATACTGCTGTTTGCTCTGGATGAATCATGGTCCTTTGGCGAGGCGTGGCTCCGGGAGAGCAAAGCACCGTGTCAGGGCCATGATCCGGGGTGGCCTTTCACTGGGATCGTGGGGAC`: “normalised bound fraction” 0.381 ratio.
`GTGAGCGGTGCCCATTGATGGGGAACATAAATGAGATTCTTTGAATCTACATAACTGGTCAAGATAATAAATGCATTAGGAATTCCCAGAGGATAGGCAGTTTGGGACTGAGATCACTGTGTAATCTTGAAGATGCAGGTTGAAGTAGACTTTTATTAAAATTTGAGCTAAAGTGGATAAGGTTCAGATAGACTACAGTATGGGGTGGACACTGTATTATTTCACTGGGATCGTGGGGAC` — result for “normalised bound fraction”: -0.0267 ratio.

Repeated from above (study 4):
`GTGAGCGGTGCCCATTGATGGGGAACGTCCAGAAACCTGTCACACTACTAATTTCAACCCCTTGGCCAGAGCTCAGGCACATGGCTGCACCTAGCTGCAAGGGAAGCTAGGAAGGTCTGTGTTTATTCTGCACAGCCATGAACTCAGCTAAAAGCCAATCAAATATTTGTAAATAAACAAAACAATTTTAGATAGTGATGTATCCTGGGAAAGAACAAATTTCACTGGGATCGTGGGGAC`: “normalised bound fraction” 0.45 ratio.
`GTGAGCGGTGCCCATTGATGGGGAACATCTTCCCCCTCTTCCTTGCCCCACCAGCTCACCTACGGGGGTTATTTGCACAAAGGAAAATAAATAAAGCCGGCATTCGTTAACGCAGTTCACGCGCATACTGCTGTTTGCTCTGGATGAATCATGGTCCTTTGGCGAGGCGTGGCTCCGGGAGAGCAAAGCACCGTGTCAGGGCCATGATCCGGGGTGGCCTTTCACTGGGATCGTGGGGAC`: “normalised bound fraction” 0.381 ratio.
For `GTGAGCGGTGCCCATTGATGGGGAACAAAAGTCTATTATTATTGAGTCTCACAAATCCTATATCAATGGTTCCCAACTTGCCAGAATAATAAAGTAGTTTATATGACATAAGTATATTTGTTTACATTGTAGCATTAAAGACTATGCTCATACTTAGTGGGGGTCTATCCAAACTTGCTTACTTAGATTAAGAGTGAATAAGCTTTGGTTTTTGGTTTTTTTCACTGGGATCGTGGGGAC`, “normalised bound fraction” read 0.527 ratio.
`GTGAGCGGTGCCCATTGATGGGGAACGGTCAGAGAATGCTAATCAGCCATGAAGTGGGCTTGCCATGACTCTGACACTGTATCTCCTGGTGCACTCTGCGGTAGGTGCATCTTTCCAGAGTAAATACAAAGTGAACTTGACGGGAAAGGAGACCTTAGCAGTCCTACAAAGGCAATTTTGCAAGCTGTCTGGCTGTGGAATTAGTGGAATGTTTTCTCATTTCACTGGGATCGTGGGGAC` — result for “normalised bound fraction”: 0.184 ratio.
`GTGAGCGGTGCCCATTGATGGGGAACATAAATGAGATTCTTTGAATCTACATAACTGGTCAAGATAATAAATGCATTAGGAATTCCCAGAGGATAGGCAGTTTGGGACTGAGATCACTGTGTAATCTTGAAGATGCAGGTTGAAGTAGACTTTTATTAAAATTTGAGCTAAAGTGGATAAGGTTCAGATAGACTACAGTATGGGGTGGACACTGTATTATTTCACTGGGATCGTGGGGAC` — result for “normalised bound fraction”: -0.0267 ratio.
